Experimental data collected from several papers.
Values joined by “and” are separate records of one study, mostly repeats; a detail may differ. Numbers after ± are the reported error.

COc1ncc(-c2nc3c(n2C(C)C)[C@H](c2ccc(Cl)cc2)N(c2cc(Cl)cn(C)c2=O)C3=O)c(OC)n1  median half-life (human patients, plasma; oral, 15 mg, low-dose arm, cycle 2 day 1): 6.9 h
C[C@@H]1CCO[C@H]2Cn3cc(C(=O)NCc4ccc(F)cc4F)c(=O)c(O)c3C(=O)N12  Cmax (human, body weight 25 to <30 kg, plasma; oral, 50 mg, film-coated tablet, steady state): 5210 ng/mL
C[C@H](CCC(=O)O)[C@H]1CC[C@H]2[C@@H]3CC[C@@H]4C[C@H](OS(=O)(=O)O)CC[C@]4(C)[C@H]3CC[C@]12C  relative peak deviation (human, plasma; endogenous control diurnal; reference: daily mean concentration): 12 ± 3.9%
C[C@@H](Oc1ccc(S(C)(=O)=O)cc1C(=O)N1C[C@@H]2C[C@]2(c2cc(C(F)(F)F)on2)C1)C(F)(F)F  subjects with diarrhoea (human; oral plus intravenous microtracer, dose not given): 16.7%
NCCONC(=O)[C@@H]1CC[C@@H]2CN1C(=O)N2OS(=O)(=O)O  adverse event incidence (item: Moderate severity; healthy Chinese men; intravenous, 1 g, treatment-related): 0%
CCN1/C(=C/C(C)=O)Sc2ccc(F)cc21  diastolic blood pressure change (cynomolgus monkey; oral, 30 mg/kg, 4 h post-dose; reference: pre-dose): 99.4 ± 3.5%
CC(C)[C@H](C(=O)Nc1ccc(C(=O)NO)cc1)c1ccccc1  measured concentration (whole blood; 100 ng/mL, 1 h, 4 °C, stability on ice): 109 ng/mL
C[C@H](CCC(=O)NCC(=O)O)[C@H]1CC[C@H]2[C@@H]3[C@H](O)C[C@@H]4C[C@H](O)CC[C@]4(C)[C@H]3CC[C@]12C  relative peak deviation (human, plasma; endogenous control diurnal; reference: daily mean concentration): 193 ± 22%
C=CC[C@@H]1/C=C(\C)C[C@H](C)C[C@H](OC)[C@H]2O[C@@](O)(C(=O)C(=O)N3CCCC[C@H]3C(=O)O[C@H](/C(C)=C/[C@@H]3CC[C@@H](O)[C@H](OC)C3)[C@H](C)[C@@H](O)CC1=O)[C@H](C)C[C@@H]2OC  dose-normalized AUC(0-12h) (kidney transplant recipients, CYP3A5*3/*3 carriers, poor metabolisers, whole blood; oral, dose not given, limited sampling): 151 ng·h/mL
Cc1c(-c2ccc(N3CCc4cccc(C(=O)Nc5nc6ccccc6s5)c4C3)nc2C(=O)O)cnn1CC12CC3(C)CC(C)(C1)CC(OCCNCC[C@H](O)CO)(C3)C2  plasma concentration (anaesthetized male beagle dog; iv infusion, 0.01 mg/kg/min, 150 min): < 2 ng/mL
COc1ccc2c(c1)CN(C(=O)CCN1CCC(Cc3ccccc3)CC1)CC[S@@+]2[O-]  systolic blood pressure (telemetry; conscious male beagle dogs; intravenous, NG, 1 h): 140 ± 28 mmHg
COc1ccc([C@@H](O)c2cc(-c3ncnc4cc(N5CCOCC5)ccc34)c(F)cc2Cl)nn1  blood lymphatic disorder TEAE (locally advanced rectal cancer patients; 100 mg, together with: capecitabine and radiotherapy): 33%
N#Cc1ccc(-c2cnc3ccc(-c4ccc(C(=O)N5CCOCC5)cc4)cn23)cc1  placebo-corrected change from baseline (item: QTcF interval; healthy volunteers; oral, 10 mg, fasted, time-averaged): 4.3 ms
NC1(C(=O)N[C@@H](CCO)c2ccc(Cl)cc2)CCN(c2nc[nH]c3nccc2-3)CC1  maculo-papular rash incidence (human mCRPC patients; oral, twice daily, 4/7 days, any grade, treatment-related, together with: enzalutamide 160 mg daily): 20%
CCc1cc(C(=O)NC)c2nccc(N3CCc4c(cc(Cn5ccnc5)cc4-c4cn(C)nc4C(F)(F)F)C3=O)c2c1  liver weight (Sprague Dawley rat; oral, 50 mg/kg once daily, 7 days): 12.4 ± 0.85 g
CC(C)Oc1c(NC(=O)c2ccc(NC(=O)[C@H](CC(N)=O)NC(=O)c3ccc(NC(=O)c4ccc(C#N)cc4)cc3)cc2)ccc(C(=O)N/N=C/c2ccc(C(=O)O)cc2)c1O  thermal half-life (absorbance; DMSO; 45 °C, PSS to ground state relaxation): 0.6 h
CN1CCN(c2cccc3c2CCN(C(=O)/C=C/c2c(-n4cnnn4)ccc(Cl)c2F)[C@@H]3C(=O)Nc2ccc(C(=O)O)cc2)C(=O)C1  subjects with infusion site pain (healthy human subjects; intravenous infusion, 1 mg/h, 5 days): 0%
O=C(c1cccnc1-c1ccncc1)N1CCC(O)(Cc2ccccc2)CC1  elimination rate constant (healthy Japanese adults, plasma; oral, 1200 mg single dose): 5.28e-05 s⁻¹
N[C@@H]1c2ccccc2OC12CCN(c1cnc3c(N4CCCc5ncccc54)n[nH]c3n1)CC2  AUC(0-tau) (advanced metastatic solid tumour patients, plasma; oral, 75 mg once daily, cycle 1 day 1, geometric mean): 5530 ng·h/mL
NCCOCC(=O)N1CCC[C@H](C(=O)NCc2nc(-c3ccc(C(F)(F)F)cc3)cs2)C1  unbound AUC (Sprague-Dawley rat, male, plasma; oral, 3 mg/kg): 0.01 µM·h
CNC(=O)c1ccc(-c2cnc3ncc(Cc4ccc5ncccc5c4)n3n2)cc1F  subjects with adverse event (healthy human subjects; oral, 400 mg, Headache, grade 3, all causality, together with: rifampicin 600 mg/day): 0%
CCC(=O)N(CCC(c1ccc2c(c1)OCO2)c1ccccc1OC)Cc1ccccc1 (stereo not drawn)  ALT (female athymic nude mouse, blood; i.p., 60 mg/kg twice daily, 14 days, group mean): 53.2 U/L
O=C(NCCN1CCCC1)c1cc(-c2ccc(CN3CCOCC3)cc2)nc2ccc(F)cc12  dizziness duration (human; oral, 1800 mg): 11.3 h and 10.8 h
CNCc1ccc(-c2[nH]c3cc(F)cc4c3c2CCNC4=O)cc1  dizziness incidence (human patients; oral, 360 mg twice daily, all grades): 25%
COc1cccc(OC)c1-c1cc(C(=O)NC2(C(=O)O)C3CC4CC(C3)CC2C4)nn1-c1ccc(C(=O)N(C)CCCN(C)CCCN(C)C(=O)CN2CCN(CC(=O)[O-])CCN(CC(=O)[O-])CCN(CC(=O)[O-])CC2)cc1C(C)C.[177Lu+3] (stereo not drawn)  tumour-to-spleen ratio (mouse HT-29 xenograft; 168 h, biodistribution; reference: tumour over spleen): 5.23
C/C(=N\c1ccc(O)cc1)c1cc2ccccc2n1C  remaining compound (rat plasma; 1000 ng/mL, time not given, 3 freeze-thaw cycles; reference: nominal): 101 ± 5.8%
CC(C)(C(=O)N1CCOc2c(C#N)cncc2C1)C(F)F  subjects with adverse event (item: Restlessness; human; oral, 20 mg twice daily, 14 days, multiple ascending dose): 12.5%
CNC(=O)c1ccc(-c2cnc3ncc(Cc4ccc5ncccc5c4)n3n2)cc1F  ILD patients (Japanese patients; oral, 400 mg twice daily, grade 3/4): 1%
Cc1ccc([C@@H]2O[C@H](CO)[C@@H](O)[C@H](O)[C@H]2O)cc1Cc1ccc(-c2ccc(F)cc2)s1  urinary magnesium excretion change (Japanese type 2 diabetes patients; 25 mg, day 16, 24 h urine collection; reference: baseline): 16.2 mg
CNC(=O)c1cc(Oc2ccc(NC(=O)Nc3ccc(Cl)c(C(F)(F)F)c3)cc2)ccn1  BUN (NOD-SCID mouse, serum; ip, 30 mg/kg): 23 ± 2.53 mg/dL
C=CC(=O)NC1CCN(c2ncc3ncnc(Nc4ccc(Oc5ccc6c(c5)ncn6C)c(C)c4)c3n2)CC1  blood-to-plasma ratio (item: total radioactivity; healthy male human, whole blood and plasma; oral, 60 mg, 2 h, geometric mean): 0.746
CNC(=O)c1ccccc1Nc1cc(Nc2ccc(N3CCOCC3)cc2OC)ncc1C(F)(F)F  solubility (0.1% w/v Soluplus buffer; 24 h, pH 6.8, 37 °C): > 40 µg/mL
Cc1ccc(N(C)C(=O)/C=C/c2ccco2)cc1  licking latency (hot plate test; mice; oral, 30 mg/kg daily for 7 days, 15 min, day 8): 15.2 ± 0.6 s
O=C(Nc1nc2cccc(-c3ccc(CN4CCS(=O)(=O)CC4)cc3)n2n1)C1CC1  patients with adverse event (item: abdominal discomfort; rheumatoid arthritis patients; oral, 300 mg once daily, 4 weeks, any relatedness): 0%
[18F]c1ccc(-c2ccc3c(c2)[nH]c2ccncc23)cn1  SUV (microPET/CT imaging; APP/PS1 mouse, AD model, brain; intravenous, 5 min): 1.6 ± 0.499
CC(C)(C)c1ccc(O)c(CN(Cc2cc(C(C)(C)C)ccc2O)C2CCC(NC(N)=O)CC2)c1 (stereo not drawn)  dose-normalised Cmax (C57BL/6 mice, male, brain; intraperitoneal, 5 mg/kg, single dose): 125 ng/g per mg/kg
CO[C@H]1C[C@@H]2CC[C@@H](C)[C@@](O)(O2)C(=O)C(=O)N2CCCC[C@H]2C(=O)O[C@H]([C@H](C)C[C@@H]2CC[C@@H](O)[C@H](OC)C2)CC(=O)[C@H](C)/C=C(\C)[C@@H](O)[C@@H](OC)C(=O)[C@H](C)C[C@H](C)/C=C/C=C/C=C/1C  heart rate (healthy adult horses; oral, 0.06 mg/kg, 1 h): 31 ± 4.8 beats/min
N#Cc1ccc2c(c1)[C@H]1CCCN(C(=O)c3ccc4[nH]cnc4c3)[C@H]1C2  SHBG (human females; 80 mg, end of trial): 52 nmol/L
CCOc1c([C@H](C)n2nc(C)c3c(N)ncnc32)cc(Cl)c(F)c1[C@@H]1CNC(=O)C1  stability relative error (rat plasma; 5 ng/mL, 3 h, room temperature; reference: nominal concentration): 8.1%
N#Cc1ccc(C(c2ccc(C#N)cc2)n2cncn2)cc1  tumour concentration (human patients, tumour tissue at surgery; 5 mg daily): 77 ± 15.7 ng/g
CCn1cc(C(=O)N2CCOCC2)c(=O)c2cc(NC3Cc4ccccc4C3)cnc21  half-life (human, fed; oral suspension, 2000 mg/day twice daily, day 8, arithmetic mean): 5.76 h
N#CCNC(=O)c1ccc(-c2ccnc(Nc3ccc(N4CCOCC4)cc3)n2)cc1  AUC0-last ratio (healthy human volunteers, plasma; oral, dose not given, together with: single-dose rifampin; reference: compound alone): 158%
C[C@H]1CN(C(=O)CC#N)[C@]12CCN(c1ncnc3[nH]ccc13)C2  participants with treatment-related TEAEs (human; oral, dose not given, all compound groups): 12.5%
CN(C(=O)n1cnc(-c2ccc[n+]([O-])c2)c1)[C@H]1CC[C@H](O)CC1  concentration (Wistar rat, midbrain; oral, 10 mg/kg of BIA 10-2474, 24 h, single dose): 13.7 ± 0.3 ng/g
COc1ccc2c(=O)n(C)c(-c3ccccc3)nc2c1  tissue/plasma ratio (Sprague-Dawley rat, male, kidney; oral, 30 mg/kg, 0.25 h; reference: kidney over plasma): 4.72
Cc1ccc(Sc2ccccc2N2CCNCC2)c(C)c1  participants with TEAE (item: Headache; healthy adult men; oral, 10 mg single dose): 0%
CCO[C@H]1CCN(Cc2c(OC)cc(C)c3[nH]ccc23)[C@H](c2ccc(C(=O)O)cc2)C1  incidence free thyroxine increase (PNH patients, active haemolysis; oral, 100 mg, treatment): 14.3%
NC(CO)(CO)CCc1ccc(Sc2cccc(OCc3ccccc3)c2)cc1Cl  pulse rate AUEC, mean (human, supine; oral, 3 mg, 0 to 312 h, together with: cyclosporin 100 mg): 18800 h×bpm
CC(=O)N(C)[C@H]1CCN(C(=O)c2cnc3c(c2)C[C@](C)(c2ccc(F)cc2)N3)C1  creatine kinase (human; dose not given): 32800 U/L
Cn1cc(Nc2nccc(-c3ccc4c(c3)CN(C3COC3)CC[C@H]4NC(=O)c3cn(C(C)(C)C)nn3)n2)cn1  transitional B cell count change (human, whole blood; 150 mg twice daily, day 7; reference: pre-dose baseline): 83.2%
CN(C(=O)C(C)(C)c1cc(C(F)(F)F)cc(C(F)(F)F)c1)c1cnc(N2C[C@H]3COCCN3C[C@H]2CO)cc1-c1ccc(F)cc1[14CH3]  radioactivity recovered (healthy men, toilet tissue; oral, 120 mg, 0 to 480 h; reference: dose): 0.5%
NC1(C(=O)N[C@@H](CCO)c2ccc(Cl)cc2)CCN(c2nc[nH]c3nccc2-3)CC1  steady-state exposure difference (Chinese/Asian patients; dose not given; reference: rest of world): < 15%
CCCCCCCOc1ccc(CCC(N)(CO)CO)cc1C(F)(F)F.Cl  tlast (Sprague-Dawley rat, male, plasma; oral, 1 mg/kg): 8 h
Cc1ccc(C)c(OCCCC(C)(C)C(=O)O)c1  geometric mean ratio (item: Cmax; human subjects, plasma; oral, dose not given, together with: lopinavir-ritonavir; reference: with over without lopinavir-ritonavir): 0.67
CCN1CCN(Cc2ccc(NC(=O)c3ccc(C)c(NC(=O)c4cncc(-c5cccs5)c4)c3)cc2C(F)(F)F)CC1  mean plasma concentration (LC-MS/MS; C57BL/6 mouse, plasma; intraperitoneal, 20 mg/kg single dose, 4 h): 203 ng/mL
Cc1cc(NC2CCN(C(=O)OC3CCN(C(=O)/C=C/CN(C)C)C3)CC2)n2ncc(C(C)C)c2n1 (stereo not drawn)  patients with Asthenia (patients with advanced solid tumours; dose not given, QD arm, any grade): 5%
O=C(Nc1cnccc1Cl)N1CCN(Cc2ccc3c(c2)OC(F)(F)O3)CC1  dose-normalized Cmax (elderly men and women, plasma; oral, 100 mg once daily, day 10, normalized to 10 mg): 105 ng/mL
